Assay results of several laboratories.
Each line is one published result; not all experiments were run side by side. ± marks the error that the study gave.
Oprk1: Kappa-type opioid receptor (Oprk1, Rattus norvegicus, UniProt P34975)
Sequence of UniProt P34975 (whole entry, looked up): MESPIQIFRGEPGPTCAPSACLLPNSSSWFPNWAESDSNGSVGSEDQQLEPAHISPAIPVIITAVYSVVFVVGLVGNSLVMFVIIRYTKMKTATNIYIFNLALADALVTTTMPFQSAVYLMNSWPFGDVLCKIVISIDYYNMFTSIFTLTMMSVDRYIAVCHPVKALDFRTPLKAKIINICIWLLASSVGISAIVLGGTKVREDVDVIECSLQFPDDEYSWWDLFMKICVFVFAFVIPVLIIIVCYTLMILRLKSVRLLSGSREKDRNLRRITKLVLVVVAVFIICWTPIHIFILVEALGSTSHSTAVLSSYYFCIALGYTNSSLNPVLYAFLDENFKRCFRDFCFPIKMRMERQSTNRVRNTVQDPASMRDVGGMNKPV
Genome polyprotein 3C protease: Genome polyprotein, 3C protease (rhinovirus B14, UniProt P03303)
Sequence of UniProt P03303 (whole entry, looked up): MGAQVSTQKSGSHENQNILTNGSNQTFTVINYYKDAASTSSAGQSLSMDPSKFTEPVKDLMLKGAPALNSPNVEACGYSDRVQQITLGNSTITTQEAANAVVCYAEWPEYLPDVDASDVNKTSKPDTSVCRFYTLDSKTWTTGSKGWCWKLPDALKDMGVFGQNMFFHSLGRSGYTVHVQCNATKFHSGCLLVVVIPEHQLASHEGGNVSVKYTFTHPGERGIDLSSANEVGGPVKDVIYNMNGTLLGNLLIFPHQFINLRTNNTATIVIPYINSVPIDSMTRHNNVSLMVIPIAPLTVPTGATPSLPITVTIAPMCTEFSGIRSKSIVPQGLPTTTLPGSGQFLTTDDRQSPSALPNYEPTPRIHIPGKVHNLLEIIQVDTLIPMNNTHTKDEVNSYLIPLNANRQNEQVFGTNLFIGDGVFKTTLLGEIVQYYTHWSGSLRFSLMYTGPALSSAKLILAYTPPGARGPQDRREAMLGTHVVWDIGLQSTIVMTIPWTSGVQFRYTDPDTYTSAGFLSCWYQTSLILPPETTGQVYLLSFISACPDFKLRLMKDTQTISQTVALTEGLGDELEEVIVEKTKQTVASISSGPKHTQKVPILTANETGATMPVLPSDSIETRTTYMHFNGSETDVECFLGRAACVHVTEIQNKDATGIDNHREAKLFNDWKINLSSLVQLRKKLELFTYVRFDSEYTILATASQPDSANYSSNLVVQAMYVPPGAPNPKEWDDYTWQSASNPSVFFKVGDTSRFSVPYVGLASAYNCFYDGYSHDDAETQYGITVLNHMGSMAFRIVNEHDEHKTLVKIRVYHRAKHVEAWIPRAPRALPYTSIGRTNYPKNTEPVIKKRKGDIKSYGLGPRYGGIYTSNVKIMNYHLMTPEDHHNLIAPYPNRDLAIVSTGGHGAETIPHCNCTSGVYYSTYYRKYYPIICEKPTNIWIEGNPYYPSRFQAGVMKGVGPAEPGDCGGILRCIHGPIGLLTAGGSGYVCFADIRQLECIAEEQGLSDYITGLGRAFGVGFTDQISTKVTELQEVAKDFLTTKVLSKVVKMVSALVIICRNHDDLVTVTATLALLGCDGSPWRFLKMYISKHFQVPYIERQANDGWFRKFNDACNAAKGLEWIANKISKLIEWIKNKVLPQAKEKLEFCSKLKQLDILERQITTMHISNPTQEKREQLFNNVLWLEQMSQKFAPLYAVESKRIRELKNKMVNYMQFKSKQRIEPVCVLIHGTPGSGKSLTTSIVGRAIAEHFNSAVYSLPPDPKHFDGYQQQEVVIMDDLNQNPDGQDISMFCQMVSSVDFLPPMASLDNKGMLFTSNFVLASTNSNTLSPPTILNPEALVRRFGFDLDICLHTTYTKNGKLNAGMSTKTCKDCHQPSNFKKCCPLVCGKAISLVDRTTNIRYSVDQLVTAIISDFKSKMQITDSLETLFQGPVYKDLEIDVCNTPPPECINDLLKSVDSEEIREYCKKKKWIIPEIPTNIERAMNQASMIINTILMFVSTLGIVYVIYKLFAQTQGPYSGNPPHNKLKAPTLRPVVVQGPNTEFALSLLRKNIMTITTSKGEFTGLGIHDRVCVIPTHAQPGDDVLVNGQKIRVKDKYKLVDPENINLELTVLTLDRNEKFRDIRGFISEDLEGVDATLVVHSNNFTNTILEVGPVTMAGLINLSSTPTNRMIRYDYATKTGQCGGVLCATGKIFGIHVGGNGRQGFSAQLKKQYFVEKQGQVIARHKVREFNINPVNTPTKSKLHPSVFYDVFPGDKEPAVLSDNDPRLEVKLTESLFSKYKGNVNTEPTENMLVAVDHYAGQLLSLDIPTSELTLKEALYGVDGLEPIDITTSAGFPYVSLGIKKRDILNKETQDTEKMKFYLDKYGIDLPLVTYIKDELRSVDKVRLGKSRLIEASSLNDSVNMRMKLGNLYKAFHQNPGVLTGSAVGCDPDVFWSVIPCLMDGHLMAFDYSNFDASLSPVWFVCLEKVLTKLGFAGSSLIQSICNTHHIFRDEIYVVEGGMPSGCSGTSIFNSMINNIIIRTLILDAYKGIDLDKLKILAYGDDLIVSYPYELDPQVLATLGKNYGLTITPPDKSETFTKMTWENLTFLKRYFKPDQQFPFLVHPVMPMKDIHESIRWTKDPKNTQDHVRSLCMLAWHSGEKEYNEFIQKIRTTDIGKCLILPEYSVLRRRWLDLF
Sequence of UniProt Q9BZ95 (whole entry, looked up): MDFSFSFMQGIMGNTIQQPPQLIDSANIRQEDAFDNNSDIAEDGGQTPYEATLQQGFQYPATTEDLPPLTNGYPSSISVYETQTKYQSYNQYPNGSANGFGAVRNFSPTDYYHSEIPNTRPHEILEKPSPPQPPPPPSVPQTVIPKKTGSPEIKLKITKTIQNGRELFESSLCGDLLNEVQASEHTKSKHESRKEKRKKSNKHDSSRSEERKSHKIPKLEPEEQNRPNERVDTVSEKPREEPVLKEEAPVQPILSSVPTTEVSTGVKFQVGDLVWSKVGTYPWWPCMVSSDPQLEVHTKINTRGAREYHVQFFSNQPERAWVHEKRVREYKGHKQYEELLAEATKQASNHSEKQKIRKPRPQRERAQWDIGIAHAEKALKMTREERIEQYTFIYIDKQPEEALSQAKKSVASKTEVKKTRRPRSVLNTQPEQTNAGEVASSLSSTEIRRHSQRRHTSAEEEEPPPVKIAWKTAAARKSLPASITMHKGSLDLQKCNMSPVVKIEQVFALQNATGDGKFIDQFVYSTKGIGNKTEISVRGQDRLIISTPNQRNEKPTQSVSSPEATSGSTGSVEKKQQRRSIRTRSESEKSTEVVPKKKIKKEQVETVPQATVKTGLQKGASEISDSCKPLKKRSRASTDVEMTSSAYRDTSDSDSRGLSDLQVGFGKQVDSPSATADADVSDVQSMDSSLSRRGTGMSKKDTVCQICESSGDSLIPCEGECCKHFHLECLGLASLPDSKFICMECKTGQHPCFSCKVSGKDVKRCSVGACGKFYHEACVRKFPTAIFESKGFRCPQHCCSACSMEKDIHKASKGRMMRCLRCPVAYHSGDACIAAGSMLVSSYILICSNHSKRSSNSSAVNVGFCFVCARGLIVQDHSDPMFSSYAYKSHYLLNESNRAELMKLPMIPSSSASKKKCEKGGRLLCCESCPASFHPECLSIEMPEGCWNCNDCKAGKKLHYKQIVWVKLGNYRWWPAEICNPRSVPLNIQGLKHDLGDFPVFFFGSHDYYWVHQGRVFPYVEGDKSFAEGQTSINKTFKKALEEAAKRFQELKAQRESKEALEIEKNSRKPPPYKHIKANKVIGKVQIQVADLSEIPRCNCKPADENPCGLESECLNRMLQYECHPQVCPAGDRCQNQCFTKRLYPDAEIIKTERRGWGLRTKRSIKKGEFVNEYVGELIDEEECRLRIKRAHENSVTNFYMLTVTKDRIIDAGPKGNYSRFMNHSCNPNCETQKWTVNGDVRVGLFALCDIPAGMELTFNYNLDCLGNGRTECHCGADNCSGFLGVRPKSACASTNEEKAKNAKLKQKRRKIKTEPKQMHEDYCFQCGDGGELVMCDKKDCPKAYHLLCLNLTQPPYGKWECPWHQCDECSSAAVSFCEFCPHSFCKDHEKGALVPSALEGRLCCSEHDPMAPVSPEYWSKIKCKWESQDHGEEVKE
Sequence of UniProt P21564 (whole entry, unmodified, looked up): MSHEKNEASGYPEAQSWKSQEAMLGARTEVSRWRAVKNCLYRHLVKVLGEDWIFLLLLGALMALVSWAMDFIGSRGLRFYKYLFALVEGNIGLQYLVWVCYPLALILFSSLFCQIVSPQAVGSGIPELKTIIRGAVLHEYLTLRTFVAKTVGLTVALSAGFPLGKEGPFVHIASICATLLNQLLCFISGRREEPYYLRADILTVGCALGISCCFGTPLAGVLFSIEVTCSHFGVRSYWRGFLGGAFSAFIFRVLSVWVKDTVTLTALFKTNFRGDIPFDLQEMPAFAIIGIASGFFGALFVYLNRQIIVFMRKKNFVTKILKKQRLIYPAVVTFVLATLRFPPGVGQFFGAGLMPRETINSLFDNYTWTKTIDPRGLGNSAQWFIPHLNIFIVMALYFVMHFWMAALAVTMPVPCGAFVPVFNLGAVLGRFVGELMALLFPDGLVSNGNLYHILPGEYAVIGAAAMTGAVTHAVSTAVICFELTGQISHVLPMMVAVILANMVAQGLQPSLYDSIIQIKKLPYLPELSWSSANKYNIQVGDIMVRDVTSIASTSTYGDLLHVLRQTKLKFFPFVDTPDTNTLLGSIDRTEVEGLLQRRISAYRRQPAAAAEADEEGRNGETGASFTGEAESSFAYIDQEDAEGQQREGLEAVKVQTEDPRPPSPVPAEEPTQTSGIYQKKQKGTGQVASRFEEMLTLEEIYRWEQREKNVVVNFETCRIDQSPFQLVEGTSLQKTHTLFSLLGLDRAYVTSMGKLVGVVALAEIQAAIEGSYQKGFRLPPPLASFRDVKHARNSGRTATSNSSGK
Sequence of UniProt P30085 (whole entry, looked up): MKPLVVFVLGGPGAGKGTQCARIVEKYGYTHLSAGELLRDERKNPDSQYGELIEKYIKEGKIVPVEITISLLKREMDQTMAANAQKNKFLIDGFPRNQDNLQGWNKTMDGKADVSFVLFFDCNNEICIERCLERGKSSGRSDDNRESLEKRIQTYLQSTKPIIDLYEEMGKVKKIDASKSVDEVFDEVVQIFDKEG

SMILES	target	assay	system	conditions	scale	quantity	value
COc1ccc(Nc2c3c(nc4ccccc24)CCC(C)C3)nc1 (stereo not shown)	ache (Electrophorus electricus, UniProt O42275)	enzyme activity, inhibitor, Ellman	–	100 µM	–	inhibition	23.8%
CCN1CCN(C2=Nc3cc(Cl)ccc3Nc3ccccc32)CC1	CHRM3 (Homo sapiens, UniProt P20309, A239G/Y149C)	calcium signal, agonist, FLIPR	–	–	reference: clozapine N-oxide	Emax	91%
Cc1nc(=O)c(C[n+]2csc(CCO)c2C)c[nH]1	nicotinamide riboside transporter PnuT (Shewanella woodyi, UniProt B1KPL9)	isothermal titration calorimetry	–	25 °C	–	ΔH	-4.3 ± 1.43 kcal/mol
CC(C)CC(NC(=O)C(NC(=O)NC(C(=O)O)C(C)C)C1CCNC(=N)N1)C(=O)NCCCNC(C(=O)O)C(OC1OC(CN)C(O)C1O)C1OC(n2ccc(=O)[nH]c2=O)C(O)C1O (stereo not shown)	mraY (Aquifex aeolicus, UniProt O66465)	isothermal titration calorimetry	–	concentration not given, wild type, without Mg2+	–	binding stoichiometry	0.65 ± 0.05
CC(C)C[C@H](NC(=O)[C@H](CCCNC(=N)N)NC(=O)[C@H](Cc1c[nH]c2ccccc12)NC(=O)[C@H](Cc1ccccc1)NC(=O)[C@H](Cc1ccccc1)N(C)C(=O)CN)C(=O)N[C@@H](CCCNC(=N)N)C(=O)N[C@@H](CCCNC(=N)N)C(=O)N[C@H](C)C(=O)N[C@@H](CCCNC(=N)N)C(=O)N1CCC[C@H]1C(=O)N[C@@H](CCCCN)C(N)=O	Oprk1	agonist	CHO cells	10 µM	reference: dynorphin A(1-13) amide	adenylyl cyclase activity	90 ± 8%
O=C(CCS(=O)O)c1ccccc1	Beta-lactamase (ampC, Escherichia coli K-12, UniProt P00811)	–	–	–	–	ligand efficiency	0.43
Cc1cc(O)cc(C)c1C[C@@H]1NC(=O)[C@H](CCCCN)NC(=O)[C@H](Cc2ccccc2)NC(=O)[C@@H](CCCNC(N)=O)NC1=O	mu opioid receptor, guinea pig	antagonist	guinea pig ileum	–	–	Ke	402 ± 14 nM
[N-]=[N+]=N[C@H]1[C@@H](O)[C@H](COP(=O)(O)O)O[C@@H]1n1ccc(N)nc1=O	UMP-CMP kinase (Homo sapiens, UniProt P30085)	enzyme activity, substrate, coupled spectrophotometric	–	–	reference: D-CMP	relative Vmax	0.36 ± 0.02%
CC(C)C[C@H](NC(=O)CNC(=O)[C@@H](NC(=O)[C@H](CO)NC(=O)[C@H](CCCCN)NC(=O)[C@H](CC(C)C)NC(=O)C1(NC(=O)[C@H](CCC(=O)O)NC(=O)[C@H](CC(C)C)NC(=O)[C@@H](N)C(C)C)CC(C)(C)N([O])C(C)(C)C1)C(C)C)C(=O)N[C@@H](Cc1ccccc1)C(=O)O	Rhodopsin, photoactivated (Meta II) (RHO, Bos taurus, UniProt P02699)	dissociation from R*, EPR	–	–	–	half-life	8 min
C[C@H](NCc1ccccc1)C(=O)NCC(=O)NCC(=O)N[C@@H](Cc1ccccc1)C(=O)N[C@@H]1CC(=O)NC[C@@H](C(=O)N[C@@H](CCCNC(=N)N)C(=O)N2CCC[C@H]2C(=O)N[C@@H](CCCCN)C(N)=O)NC(=O)[C@H](CCCNC(=N)N)NC(=O)[C@H](CCCNC(=N)N)NC1=O	Oprk1	binding	–	–	reference: zyklophin	affinity fold decrease	5 fold
CCN(Cc1ccccc1)C(=O)CCc1nc(CN2CCN(C(=O)Cc3ccc(OC)c(OC)c3)CC2)no1	Scn10a (Rattus norvegicus, UniProt Q62968)	sodium current, whole-cell patch clamp	rat DRG neurons	1 µM	–	inactivation V1/2	-62.4 ± 5.79 mV
N=C(N)NCCC[C@H](NC(=O)CNC(=O)CNC(=O)[C@H](CCCNC(=N)N)NC(=O)[C@H](Cc1ccc(O)cc1)NC(=O)[C@H](Cc1c[nH]c2ccccc12)NC(=O)[C@H](CCCNC(=N)N)NC(=O)[C@@H](N)Cc1c[nH]c2ccccc12)C(=O)N[C@@H](Cc1ccc(O)cc1)C(=O)N[C@@H](Cc1c[nH]c2ccccc12)C(=O)N[C@@H](CCCNC(=N)N)C(=O)N[C@@H](Cc1c[nH]c2ccccc12)C(N)=O (single isomer, unassigned)	Holliday junction DNA	EMSA	–	–	reference: over apparent KD	supershift concentration ratio	≥ 10 fold
C[C@@]12CC[C@@H]3c4ccc(O)c(Cl)c4CC[C@H]3[C@@H]1CCC2=O	AKR1C1 (Homo sapiens, UniProt Q04828)	enzyme activity, inhibitor, absorbance	–	10 µM, pH 9	–	inhibition	18.5%
O=C(O)COc1ccc(Cl)cc1	Chloride channel protein (Torpedo marmorata, UniProt P21564, C212S)	chloride current, inside-out patch clamp	–	20 mM, step to -140 mV	–	slow deactivation time constant	35 ms
CSCC[C@H](NC(=O)[C@H](CCCNC(=N)N)NC(=O)[C@H](CO)NC(=O)[C@@H](NC(=O)[C@H](CC(=O)O)NC(=O)[C@H](CC(=O)O)NC(=O)CCCCCNC(=O)c1ccc2c(c1)C(=O)OC21c2ccc(O)cc2Oc2cc(O)ccc21)[C@@H](C)O)C(=O)N[C@@H](CCC(=O)O)C(=O)N[C@@H](CCCCN)C(=O)N[C@H](C(=O)N[C@@H](CC(=O)O)C(=O)O)C(C)C	STUB1 (Homo sapiens, UniProt Q9UNE7)	fluorescence polarization	–	pH 7.4	reference: wild-type tracer	affinity decrease	≥ 3 fold
COc1ccc2cc1Oc1ccc(cc1)C[C@H]1c3cc(c(OC)cc3CC[N@+]1(C)CCc1c[nH]c3ccccc13)Oc1c(OC)c(OC)cc3c1[C@H](C2)[N@@+](C)(CCc1c[nH]c2ccccc12)CC3	poly(dG)·poly(dC) 18-bp dsDNA	DNA binding, ethidium bromide displacement	phosphate buffer, 10% DMSO	pH 7.2, 25 °C, dsDNA 10 µM, 10 mM NaCl, together with: ethidium bromide 5 µM	–	Stern-Volmer constant	10800 M⁻¹
CC[C@H](C)[C@H](NC(=O)[C@H](CCC(N)=O)NC(=O)[C@H](CC(C)C)NC(=O)[C@@H](NC(=O)CNC(=O)[C@H](Cc1ccc(O)cc1)NC(=O)[C@H](CC(=O)O)NC(=O)[C@@H](NC(=O)[C@H](CO)NC(=O)CNC(=O)[C@H](CC(=O)O)NC(=O)[C@@H](NC(=O)[C@H](CC(N)=O)NC(=O)[C@H](CCCNC(=N)N)NC(=O)[C@H](CC(N)=O)NC(=O)[C@@H](NC(=O)[C@H](C)NC(=O)[C@H](CCC(N)=O)NC(=O)[C@@H](NC(=O)[C@H](CC(N)=O)NC(=O)[C@H](Cc1ccccc1)NC(=O)[C@H](CC(N)=O)NC(=O)[C@H](CO)NC(=O)[C@H](CCC(=O)O)NC(=O)[C@H](Cc1ccccc1)NC(=O)[C@H](CCCCN)NC(=O)[C@H](C)NC(=O)[C@H](C)NC(=O)[C@H](CO)NC(=O)[C@@H](NC(=O)[C@H](Cc1c[nH]c2ccccc12)NC(=O)[C@H](CC(N)=O)NC(=O)CNC(=O)[C@H](CC(C)C)NC(=O)[C@H](CO)NC(=O)[C@H](Cc1ccc(O)cc1)NC(=O)CNC(=O)[C@H](CCCNC(=N)N)NC(=O)[C@H](Cc1ccc(O)cc1)NC(=O)[C@H](CC(N)=O)NC(=O)[C@@H](N)CC(=O)O)C(C)C)[C@@H](C)O)[C@@H](C)O)[C@@H](C)O)[C@@H](C)O)[C@@H](C)CC)C(=O)O	Periplasmic serine endoprotease DegP (degP, Escherichia coli, UniProt P0C0V0, C83S/C95S/N322C)	FRET	–	5, 10 or 20 µM	–	assembled state duration	5 to 15 min
CC1CN1c1cc(O)c2nc(N)sc2c1 (stereo not shown)	Histone-lysine N-methyltransferase NSD3, SET domain (NSD3, Homo sapiens, UniProt Q9BZ95)	mass spectrometry	NSD3 SET domain 1 µM	10 µM, 18 h, 32 °C	–	covalent engagement	33%
COC(=O)C1C(OC(c2ccc(Cl)cc2)c2ccc(Cl)cc2)CC2CCC1N2C (single isomer, unassigned)	ADORA1 (Homo sapiens, UniProt P30542)	binding, radioligand displacement	–	inactive if below 75% at 10000 nM, together with: [3H]DPCPX	–	Ki	inactive
CCc1n[nH]c(NC(=O)c2ccc3c(c2)nnn3C)n1	Genome polyprotein 3C protease	protease activity, SAMDI-MS	–	–	–	Hill slope	1.34
CCOC(=O)/C=C/[C@H](C[C@@H]1CCNC1=O)NC(=O)[C@H](Cc1ccccc1)NC(=O)[C@H](COC(C)(C)C)NC(=O)OCc1ccccc1	Genome polyprotein 3C protease	protease activity, cell-based reporter	human rhinovirus 14	–	–	FLuc reporter expression	increased
CC(=O)N[C@H]1[C@@H](OC[C@H](NC(=O)CNC(=O)[C@@H]2CCCN2C(=O)[C@H](C)NC(=O)[C@@H]2CCCN2C(=O)[C@@H](N)CCCNC(=N)N)C(=O)N[C@H](C(=O)N[C@@H](C)C(=O)N2CCC[C@H]2C(=O)N2CCC[C@H]2C(=O)N[C@@H](C)C(=O)N[C@@H](Cc2c[nH]cn2)C(=O)NCC(=O)O)[C@@H](C)O[C@H]2O[C@H](CO)[C@H](O)[C@H](O)[C@H]2NC(C)=O)O[C@H](CO)[C@H](O)[C@@H]1O	anti-MUC1 Fab 14 A wild type, murine	SPR	–	–	reference: Glyco-S	kd decrease	36.3 fold

For quick reference, copied from above:
SMILES	target	assay	system	conditions	scale	quantity	value
CCOC(=O)/C=C/[C@H](C[C@@H]1CCNC1=O)NC(=O)[C@H](Cc1ccccc1)NC(=O)[C@H](COC(C)(C)C)NC(=O)OCc1ccccc1	Genome polyprotein 3C protease	protease activity, cell-based reporter	human rhinovirus 14	–	–	FLuc reporter expression	increased
